Assay results from different studies.
Each numbered part is a random draw from the data of one study; scales do not carry over between parts. Changes are numbered by the printed parent chain.

Set 1
Target: CREB3L1, bZIP domain (human)
Method: DHFR protein complementation
Medium: yeast
Setting: single substitutions, most at no-binding floor
Relative to: wild-type JUN-FOS pair
Direction: higher = stronger binding
Quantity: binding fitness
Parent: JUN, bZIP domain (human); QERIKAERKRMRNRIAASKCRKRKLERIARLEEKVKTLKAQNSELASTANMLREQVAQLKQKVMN; partner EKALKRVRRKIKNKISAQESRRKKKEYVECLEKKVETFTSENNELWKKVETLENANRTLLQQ
I28P: -1.45 natural log
A29W: -1.19 natural log
S47D: -1.16 natural log
E32K: -1.26 natural log
N42C: -1.38 natural log
V56Q: -1.46 natural log
R53P: -1.48 natural log
Q55D: -1.57 natural log

Set 2
Change: S171F
Target: ABI1, truncated, D143A, DHFR fusion (Arabidopsis thaliana)
Method: DHFR PCA, deep sequencing
Medium: yeast
Setting: methotrexate growth selection, single substitutions
Relative to: wild-type fitted maximum
Direction: higher = stronger binding
Quantity: relative binding score
Parent: PYL1, truncated, DHFR fusion (Arabidopsis thaliana); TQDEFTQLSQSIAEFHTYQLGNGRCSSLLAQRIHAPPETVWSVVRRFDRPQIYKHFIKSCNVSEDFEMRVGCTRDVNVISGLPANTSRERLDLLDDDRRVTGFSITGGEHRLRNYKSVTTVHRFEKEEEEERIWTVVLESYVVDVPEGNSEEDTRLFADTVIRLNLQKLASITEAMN
added: (+)-ABA 0.11 µM: 8.22%
added: (+)-ABA 4.8 µM: 63.2%
added: (+)-ABA 710 µM: 93%
added: (+)-ABA 1.4 µM: 11.6%
added: (+)-ABA 0.39 µM: -0.937%
added: (+)-ABA 2500 µM: 90.5%

Set 3
Target: Phosphate system positive regulatory protein PHO4, full length, GST-tagged (PHO4, Saccharomyces cerevisiae, UniProt P07270, residues 1-312)
Method: competition protein-binding microarray
Form: double-stranded DNA, one strand shown
Medium: in vitro
Concentration: 2 µM
Setting: whole 60-bp probe, lowest competitor level
Added: Cbf1 competitor, 0.05 µM
Direction: higher = stronger binding
Quantity: fluorescence intensity
Residues (chain): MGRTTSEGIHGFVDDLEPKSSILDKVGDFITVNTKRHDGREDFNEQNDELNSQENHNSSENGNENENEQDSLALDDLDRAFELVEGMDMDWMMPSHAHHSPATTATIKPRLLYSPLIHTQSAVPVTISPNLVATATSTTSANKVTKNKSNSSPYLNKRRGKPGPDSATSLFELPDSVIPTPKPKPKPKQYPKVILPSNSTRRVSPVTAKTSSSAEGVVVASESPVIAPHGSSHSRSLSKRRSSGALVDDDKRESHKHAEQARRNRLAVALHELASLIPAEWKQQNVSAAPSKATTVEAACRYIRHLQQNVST
CTAACGAAGGTTTGTCACCACACTTACAAGCCAAGTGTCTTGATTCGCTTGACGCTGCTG: 4650 a.u.
TATCGGTGGGCATTGTACCTGATCTTGCTAGACAAAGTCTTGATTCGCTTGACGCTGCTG: 3010 a.u.
GACAGCGACGGTAAACGCGTGTCGGTCGAGAAGGAGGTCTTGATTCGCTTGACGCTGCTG: 8550 a.u.
CGGGGTTAAGTTTCTCACGTGTTTTGCTTGCAGCAGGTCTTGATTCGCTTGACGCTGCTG: 13100 a.u.
GGTCTCCTCGGTGAGAACGTGATGGGATAGCCGTTAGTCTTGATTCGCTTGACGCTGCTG: 11800 a.u.
CATACCCAACCTTGTTGAGTGGGTGAAGATATTTGTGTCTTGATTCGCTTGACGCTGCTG: 3960 a.u.
TGCGCAACAACTTGTCACTCAACTTTATGTCTAGAAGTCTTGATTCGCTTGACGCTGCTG: 3920 a.u.
CGGGGTTAAGTTTGTTCTGTGGGTGGCTTGCAGCAGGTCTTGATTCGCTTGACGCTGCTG: 3940 a.u.

Mixed results
Parent: viral docking peptide; YKVKRRLVFGADD
YKVKRRLNFGADD [V8N] — normalised enrichment score (CCNB3, cyclin fold, Cln2 fusion (human); yeast growth competition, sequencing; yeast; strong parent motif; relative to: not given, higher = stronger binding): 1.9
